Assay results gathered from unrelated publications.
Parts stem from different laboratories: compare values within a part only.
UniProt P78362, sequence (whole entry, looked up): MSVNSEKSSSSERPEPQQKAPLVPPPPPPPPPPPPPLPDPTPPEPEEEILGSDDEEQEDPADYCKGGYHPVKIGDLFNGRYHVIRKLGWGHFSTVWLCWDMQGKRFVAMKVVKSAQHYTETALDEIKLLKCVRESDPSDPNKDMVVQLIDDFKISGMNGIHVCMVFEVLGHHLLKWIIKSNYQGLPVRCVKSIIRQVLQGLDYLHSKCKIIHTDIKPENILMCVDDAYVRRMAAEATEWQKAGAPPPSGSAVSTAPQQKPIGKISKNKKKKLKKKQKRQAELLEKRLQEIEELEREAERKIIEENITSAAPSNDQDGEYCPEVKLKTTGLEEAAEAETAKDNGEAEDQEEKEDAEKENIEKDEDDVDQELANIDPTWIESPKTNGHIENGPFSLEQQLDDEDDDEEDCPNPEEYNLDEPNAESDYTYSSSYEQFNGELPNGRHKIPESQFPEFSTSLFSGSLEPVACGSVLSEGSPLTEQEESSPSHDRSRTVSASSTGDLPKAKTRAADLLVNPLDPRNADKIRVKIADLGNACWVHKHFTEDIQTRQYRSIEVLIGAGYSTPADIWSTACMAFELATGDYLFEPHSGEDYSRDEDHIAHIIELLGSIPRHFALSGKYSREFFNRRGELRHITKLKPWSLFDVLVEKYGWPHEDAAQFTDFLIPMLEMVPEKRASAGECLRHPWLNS
UniProt Q86Z02, sequence (whole entry, looked up): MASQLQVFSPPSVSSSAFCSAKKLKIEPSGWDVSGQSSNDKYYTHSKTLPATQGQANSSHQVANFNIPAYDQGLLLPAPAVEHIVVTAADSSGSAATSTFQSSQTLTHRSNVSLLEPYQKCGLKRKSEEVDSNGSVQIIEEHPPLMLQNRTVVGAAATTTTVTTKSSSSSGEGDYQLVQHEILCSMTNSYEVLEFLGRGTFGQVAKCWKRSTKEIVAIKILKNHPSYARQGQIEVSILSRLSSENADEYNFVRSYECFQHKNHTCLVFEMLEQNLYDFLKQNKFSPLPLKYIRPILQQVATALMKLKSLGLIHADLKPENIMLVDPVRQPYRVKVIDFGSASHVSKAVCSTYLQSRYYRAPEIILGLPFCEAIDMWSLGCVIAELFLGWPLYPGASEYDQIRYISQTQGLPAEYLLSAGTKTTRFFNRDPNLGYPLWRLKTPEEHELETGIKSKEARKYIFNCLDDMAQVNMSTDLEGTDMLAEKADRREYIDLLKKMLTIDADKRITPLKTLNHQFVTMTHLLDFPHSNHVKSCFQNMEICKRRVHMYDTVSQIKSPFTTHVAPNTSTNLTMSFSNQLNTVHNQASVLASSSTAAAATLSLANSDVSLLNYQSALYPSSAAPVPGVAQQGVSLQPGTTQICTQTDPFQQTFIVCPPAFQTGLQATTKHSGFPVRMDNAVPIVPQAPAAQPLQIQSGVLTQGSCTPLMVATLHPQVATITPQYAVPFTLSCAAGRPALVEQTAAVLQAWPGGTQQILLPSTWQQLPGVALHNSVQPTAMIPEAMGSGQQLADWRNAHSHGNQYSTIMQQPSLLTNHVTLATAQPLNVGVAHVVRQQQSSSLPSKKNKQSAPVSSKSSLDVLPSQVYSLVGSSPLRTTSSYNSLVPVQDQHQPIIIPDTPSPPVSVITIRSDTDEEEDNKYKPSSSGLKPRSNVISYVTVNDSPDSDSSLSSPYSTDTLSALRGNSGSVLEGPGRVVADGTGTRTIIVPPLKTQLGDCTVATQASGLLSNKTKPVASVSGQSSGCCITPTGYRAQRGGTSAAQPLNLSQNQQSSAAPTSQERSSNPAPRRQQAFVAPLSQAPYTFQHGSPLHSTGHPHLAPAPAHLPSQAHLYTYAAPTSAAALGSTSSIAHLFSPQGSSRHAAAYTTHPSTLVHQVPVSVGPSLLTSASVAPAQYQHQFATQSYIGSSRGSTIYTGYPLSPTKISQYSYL
UniProt Q8NG66, sequence (whole entry, looked up): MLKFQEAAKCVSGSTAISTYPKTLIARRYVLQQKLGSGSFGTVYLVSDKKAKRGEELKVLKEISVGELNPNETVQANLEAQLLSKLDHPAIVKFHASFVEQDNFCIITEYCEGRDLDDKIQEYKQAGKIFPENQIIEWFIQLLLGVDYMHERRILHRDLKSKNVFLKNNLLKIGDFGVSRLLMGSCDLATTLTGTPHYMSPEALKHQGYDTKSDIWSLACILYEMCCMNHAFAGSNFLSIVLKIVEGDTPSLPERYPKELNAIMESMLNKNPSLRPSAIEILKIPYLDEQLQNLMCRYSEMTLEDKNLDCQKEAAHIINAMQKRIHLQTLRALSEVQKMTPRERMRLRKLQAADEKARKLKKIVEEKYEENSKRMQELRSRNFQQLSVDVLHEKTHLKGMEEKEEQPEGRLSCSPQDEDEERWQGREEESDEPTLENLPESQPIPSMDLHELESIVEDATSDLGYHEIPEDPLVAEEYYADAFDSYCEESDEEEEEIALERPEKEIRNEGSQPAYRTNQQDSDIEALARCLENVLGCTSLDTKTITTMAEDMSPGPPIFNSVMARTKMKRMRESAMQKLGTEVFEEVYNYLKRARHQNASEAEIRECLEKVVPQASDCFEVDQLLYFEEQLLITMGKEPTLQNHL
UniProt P51813, sequence (whole entry, looked up): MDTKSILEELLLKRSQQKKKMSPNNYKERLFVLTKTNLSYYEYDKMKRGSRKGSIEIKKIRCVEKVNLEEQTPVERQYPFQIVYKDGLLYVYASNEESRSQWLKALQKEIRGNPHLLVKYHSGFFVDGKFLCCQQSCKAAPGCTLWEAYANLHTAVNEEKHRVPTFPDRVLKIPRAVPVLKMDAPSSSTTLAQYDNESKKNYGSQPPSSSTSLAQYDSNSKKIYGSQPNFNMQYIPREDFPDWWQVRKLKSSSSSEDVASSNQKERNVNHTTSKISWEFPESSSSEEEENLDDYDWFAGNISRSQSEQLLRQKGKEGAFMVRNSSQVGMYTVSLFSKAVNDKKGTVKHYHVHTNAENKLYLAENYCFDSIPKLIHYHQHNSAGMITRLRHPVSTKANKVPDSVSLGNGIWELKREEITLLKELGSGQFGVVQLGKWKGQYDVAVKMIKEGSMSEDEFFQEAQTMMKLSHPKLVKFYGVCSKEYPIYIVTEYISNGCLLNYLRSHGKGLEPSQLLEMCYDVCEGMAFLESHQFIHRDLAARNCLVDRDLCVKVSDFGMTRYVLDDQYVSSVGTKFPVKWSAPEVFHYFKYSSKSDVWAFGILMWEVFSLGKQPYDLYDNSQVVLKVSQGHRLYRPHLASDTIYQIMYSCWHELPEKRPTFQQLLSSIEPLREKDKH
UniProt Q13043, sequence (whole entry, looked up): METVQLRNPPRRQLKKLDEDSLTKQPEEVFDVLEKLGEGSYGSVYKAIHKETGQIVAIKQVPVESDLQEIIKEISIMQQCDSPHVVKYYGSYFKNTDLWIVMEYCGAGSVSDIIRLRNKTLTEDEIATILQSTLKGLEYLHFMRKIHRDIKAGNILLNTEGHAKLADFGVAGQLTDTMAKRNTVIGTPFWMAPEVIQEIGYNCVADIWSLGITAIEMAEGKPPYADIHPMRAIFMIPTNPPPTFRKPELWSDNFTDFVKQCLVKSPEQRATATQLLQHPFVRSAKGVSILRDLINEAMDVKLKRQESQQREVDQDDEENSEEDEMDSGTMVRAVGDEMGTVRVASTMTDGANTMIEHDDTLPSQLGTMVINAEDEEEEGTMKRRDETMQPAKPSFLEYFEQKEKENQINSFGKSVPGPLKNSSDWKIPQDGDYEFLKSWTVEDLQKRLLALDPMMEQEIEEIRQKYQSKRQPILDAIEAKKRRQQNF
UniProt Q9UQM7, sequence (whole entry, looked up): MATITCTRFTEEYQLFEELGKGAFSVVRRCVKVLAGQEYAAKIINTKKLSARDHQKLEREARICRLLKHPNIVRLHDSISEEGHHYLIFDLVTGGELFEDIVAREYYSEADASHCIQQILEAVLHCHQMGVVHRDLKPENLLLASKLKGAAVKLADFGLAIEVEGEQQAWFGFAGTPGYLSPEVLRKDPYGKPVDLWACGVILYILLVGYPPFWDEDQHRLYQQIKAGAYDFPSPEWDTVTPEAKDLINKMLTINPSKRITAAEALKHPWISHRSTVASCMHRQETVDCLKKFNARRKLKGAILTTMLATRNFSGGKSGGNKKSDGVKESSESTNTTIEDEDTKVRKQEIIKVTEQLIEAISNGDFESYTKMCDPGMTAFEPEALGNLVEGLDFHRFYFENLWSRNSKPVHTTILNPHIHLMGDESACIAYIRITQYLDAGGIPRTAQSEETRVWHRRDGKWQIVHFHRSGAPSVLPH

Sample 1
Species: human
Sample: microsomes or S9
Concentration: 2 µM
Time: 0.5 h
Quantity: remaining compound
CC1(C)Cc2ccccc2C(C2=NC(C)(C)Cc3ccccc32)=N1: 6.92%
Cc1ccc(C(O)(c2ccccc2)c2cnc(C(C)C)n2C)cc1 (stereo not shown): 13.3%
CCN(c1ccccc1)c1nc(N(CC)c2ccccc2)[nH]c(=O)n1: 92.3%

Sample 2
Target: Fibroblast growth factor receptor 2 (FGFR2, Homo sapiens, UniProt P21802)
UniProt P21802, sequence (whole entry, looked up): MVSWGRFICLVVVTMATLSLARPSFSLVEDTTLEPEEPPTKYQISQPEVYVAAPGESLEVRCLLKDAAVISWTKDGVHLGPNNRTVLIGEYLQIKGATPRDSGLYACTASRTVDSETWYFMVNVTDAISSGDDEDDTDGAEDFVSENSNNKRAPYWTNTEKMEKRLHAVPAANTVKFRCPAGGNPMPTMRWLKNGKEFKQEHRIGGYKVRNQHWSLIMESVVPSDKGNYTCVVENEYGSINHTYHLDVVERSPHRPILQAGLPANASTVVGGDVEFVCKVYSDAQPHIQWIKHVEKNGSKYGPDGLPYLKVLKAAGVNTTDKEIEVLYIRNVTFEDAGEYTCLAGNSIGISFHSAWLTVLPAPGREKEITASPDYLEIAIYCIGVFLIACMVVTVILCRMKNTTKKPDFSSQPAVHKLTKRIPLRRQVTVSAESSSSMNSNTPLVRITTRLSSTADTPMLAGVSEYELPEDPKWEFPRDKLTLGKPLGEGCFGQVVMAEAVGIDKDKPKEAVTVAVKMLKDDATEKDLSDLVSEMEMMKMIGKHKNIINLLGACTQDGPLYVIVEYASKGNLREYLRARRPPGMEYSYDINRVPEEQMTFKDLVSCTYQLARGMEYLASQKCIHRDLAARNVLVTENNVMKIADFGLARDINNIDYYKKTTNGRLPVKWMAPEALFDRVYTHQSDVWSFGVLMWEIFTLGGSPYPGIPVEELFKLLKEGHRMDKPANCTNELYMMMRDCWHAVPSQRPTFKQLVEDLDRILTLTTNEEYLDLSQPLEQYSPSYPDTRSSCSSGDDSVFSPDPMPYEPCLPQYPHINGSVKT
Read-out: enzyme activity
Mode: inhibitor
Concentration: 0.5 µM
Relative to: control
Quantity: remaining activity
N#C/C(=C\c1ccc(O)c(O)c1)C(=O)NCc1ccccc1: 98.1%
O=C1C(Cl)=C(N2C(=O)CCC2=O)C(=O)c2ccccc21: 102%
Cc1nc2cc3nc(-c4cccs4)cnc3cc2n1C: 91.8%
COc1cc2c(cc1OC)-c1[nH]nc(Nc3cccc(F)c3)c1C2: 100%
CN(C)C[C@H]1CCn2c(c(C3=C(c4cn(C)c5ccccc45)C(=O)NC3=O)c3ccccc32)C1: 104%

Sample 3
Compound: CC(=O)N1CCC(c2ccc(C(=O)NC3=NCCN3)cc2C(F)(F)F)CC1
Method: competition with immobilised ligand
Concentration: 1 µM
Quantity: remaining binding
Hepatocyte growth factor receptor (MET, Homo sapiens, UniProt P08581); cell-free assay: 100%
Cytoplasmic tyrosine-protein kinase BMX (BMX, Homo sapiens, UniProt P51813); cell-free assay: 100%
Calcium/calmodulin-dependent protein kinase type II subunit alpha (CAMK2A, Homo sapiens, UniProt Q9UQM7); cell-free assay: 94%
Serine/threonine-protein kinase 4 (STK4, Homo sapiens, UniProt Q13043); cell-free assay: 100%
Serine/threonine-protein kinase PLK2 (PLK2, Homo sapiens, UniProt Q9NYY3); cell-free assay: 80%
Receptor-interacting serine/threonine-protein kinase 1 (RIPK1, Homo sapiens, UniProt Q13546); cell-free assay: 100%
TRAF2 and NCK-interacting protein kinase (TNIK, Homo sapiens, UniProt Q9UKE5); cell-free assay: 68%
Ribosomal protein S6 kinase alpha-4, C-terminal kinase domain (RPS6KA4, Homo sapiens, UniProt O75676); cell-free assay: 81%
SRSF protein kinase 2 (SRPK2, Homo sapiens, UniProt P78362); cell-free assay: 100%
Epidermal growth factor receptor (EGFR, Homo sapiens, UniProt P00533, G719S); cell-free assay: 100%
Serine/threonine-protein kinase Nek11 (NEK11, Homo sapiens, UniProt Q8NG66); cell-free assay: 100%
Serine/threonine-protein kinase Nek10 (NEK10, Homo sapiens, UniProt Q6ZWH5); cell-free assay: 93%
Dual specificity tyrosine-phosphorylation-regulated kinase 1A (DYRK1A, Homo sapiens, UniProt Q13627); cell-free assay: 74%
Homeodomain-interacting protein kinase 1 (HIPK1, Homo sapiens, UniProt Q86Z02); cell-free assay: 91%
Tyrosine-protein kinase ABL1, phosphorylated (ABL1, Homo sapiens, UniProt P00519, Q252H); cell-free assay: 86%
Serine/threonine-protein kinase ICK (CILK1, Homo sapiens, UniProt Q9UPZ9); binding: 88%

Sample 4
Target: Sox-I, HMG box (Salpingoeca helianthica)
Method: Spec-seq
Form: double-stranded DNA, one strand shown
Sample: in vitro
Concentration: not given
Notes: whole probe, mean of replicates
Relative to: not given
Direction: lower = stronger binding
Quantity: relative binding energy
Shared flanks, not repeated: GAGTCGTCTCGTCAGCAC … TCCGTAGAGCACTCAGGTC
Construct (chain): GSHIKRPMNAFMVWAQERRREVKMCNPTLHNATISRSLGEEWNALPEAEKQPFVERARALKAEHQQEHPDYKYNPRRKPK
CATTCA: -0.392 ln ratio
AGGCGT: 0.778 ln ratio
GGTTGT: -0.099 ln ratio
TACCGT: 0.32 ln ratio
AGGGGT: 0.616 ln ratio
TAATGT: -0.00576 ln ratio
TATGGT: 0.0682 ln ratio
CGCTGT: -0.635 ln ratio

Single results of other studies
DNAAF10 (Homo sapiens, UniProt Q96MX6)
cross-linked residues (IPO9 (Homo sapiens, UniProt Q96P70); cross-linking MS; cell fractions; together with: DSSO): K66 to K916

CC(C)n1cnc(-c2ccc(F)cc2)c1-c1ncc(C(=O)Nc2ccc(N3CCN(C)CC3)cc2)[nH]1
any adverse event incidence (IPF patients; 60 mg once daily, without standard of care): 85.7%

CCT4 (Homo sapiens, UniProt P50991)
cross-linked residues (CCT7 (Homo sapiens, UniProt Q99832); cross-linking MS; cell fractions; together with: DMTMM): P2 to D70

EIF4A3 (Homo sapiens, UniProt P38919)
interaction screen (MAGOH (Homo sapiens, UniProt P61326); cross-linking MS; hits only): cross-linked

RFC2 (Homo sapiens, UniProt P35250)
cross-linked residues (RFC5 (Homo sapiens, UniProt P40937); cross-linking MS; cell fractions; together with: DSSO): K99 to K144

Repeated from above (sample 3):
Serine/threonine-protein kinase ICK (CILK1, Homo sapiens, UniProt Q9UPZ9); binding: 88%
Cytoplasmic tyrosine-protein kinase BMX (BMX, Homo sapiens, UniProt P51813); cell-free assay: 100%
Serine/threonine-protein kinase Nek11 (NEK11, Homo sapiens, UniProt Q8NG66); cell-free assay: 100%
Serine/threonine-protein kinase Nek10 (NEK10, Homo sapiens, UniProt Q6ZWH5); cell-free assay: 93%
Calcium/calmodulin-dependent protein kinase type II subunit alpha (CAMK2A, Homo sapiens, UniProt Q9UQM7); cell-free assay: 94%
